Results pooled from the literature.
Compare with care: the assays were run in different laboratories. “And” joins repeats or separate records; there may be more than shown. Numbers after ± are the reported error.

Compound	test	system	setting	AUC(0-t)
Cc1[nH]c(/C=C2\C(=O)Nc3ccccc32)c(C)c1CCC(=O)O	–	human patients	oral, 400 mg/m^2 twice daily, after meal, dose 55	32 ± 11.3 µg·h/mL
CC(C)[C@H](N)C(=O)NCCCS(=O)(=O)O	–	human, both sexes, plasma	oral, 300 mg capsule	9.61 ± 2.68 µg·h/mL
O=c1[nH]c(=O)c(Cc2cccc(C(F)(F)F)c2)c([C@H]2CC[C@H](c3ccccc3)CC2)[nH]1	–	human, fasted, plasma	oral, 100 mg single dose, geometric mean	1.09 µg·h/mL
CO[C@H]1C[C@@H]2CC[C@@H](C)[C@@](O)(O2)C(=O)C(=O)N2CCCC[C@H]2C(=O)O[C@H]([C@H](C)C[C@@H]2CC[C@@H](OC(=O)C(C)(CO)CO)[C@H](OC)C2)CC(=O)[C@H](C)/C=C(\C)[C@@H](O)[C@@H](OC)C(=O)[C@H](C)C[C@H](C)/C=C/C=C/C=C/1C	–	human, whole blood	intravenous, 60 mg/m2 weekly, 0 to 24 h post dose, cycle 5, together with: valproic acid	6.2 µg·h/mL
CN(Cc1cnc2nc(N)nc(N)c2n1)c1ccc(C(=O)N[C@@H](CCC(=O)O)C(=O)O)cc1	–	human	oral, dose not given, day 8, together with: isavuconazole	0.587 µg·h/mL
C=CC(=O)Nc1cc(Nc2ncc(C(=O)OC(C)C)c(-c3cn(C)c4ccccc34)n2)c(OC)cc1N(C)CCN(C)C	–	human, fasted	oral, 40 mg single dose, arithmetic mean	0.18 µg·h/mL
COc1c(OCCCN2CCOCC2)ccc2c1N=C(NC(=O)c1cnc(N)nc1)N1CCN=C21	–	human solid tumour patients, plasma	intravenous, 0.8 mg/kg, cycle 1 day 15	1.53 µg·h/mL
O=C(O)CC[C@H]1CC[C@@](c2cc(F)ccc2F)(S(=O)(=O)c2ccc(Cl)cc2)CC1	–	human patients, plasma	oral, 1000 mg/m^2 weekly, median, dose 1 of course 1	1860 µg·h/mL
O=S(=O)(c1cccc2cnccc12)N1CCCNCC1	–	human, plasma	oral, 30 mg	0.00029 µg·h/mL
CCCC[C@H](NC(C)=O)C(=O)N[C@H]1CCC(=O)NC[C@@H](C(=O)N[C@@H](Cc2c[nH]c3ccccc23)C(N)=O)NC(=O)[C@H](CCCNC(=N)N)NC(=O)[C@@H](Cc2ccccc2)NC(=O)[C@H](Cc2c[nH]cn2)NC1=O	–	healthy human, both sexes, plasma	subcutaneous, 3.0 mg once daily, day 1, geometric mean	0.152 µg·h/mL
CCNCc1cc(Nc2ccnc3cc(Cl)ccc23)ccc1O	HPLC-EC	human, fasting, both sexes, plasma	oral, 200 mg artesunate + 612 mg amodiaquine, non-fixed loose combination	40.3 ± 19.8 µg·h/mL
COc1cc(Nc2ncc3c(n2)-c2ccc(Cl)cc2C(c2c(F)cccc2OC)=NC3)ccc1C(=O)O	–	human, plasma	oral, 50 mg single, fed	21.7 µM·h
CC(C)NC[C@@H](C(=O)N1CCN(c2ncnc3c2[C@H](C)C[C@H]3O)CC1)c1ccc(Cl)cc1	–	human, hepatic impairment Mild (Child-Pugh), plasma	oral, 100 mg single, geometric mean	0.284 µg·h/mL
CCCCC[C@H](O)CC[C@@H]1[C@H]2Cc3cccc(OCC(=O)O)c3C[C@H]2C[C@H]1O	–	human Japanese PAH patients, plasma	inhalation, 54 µg four times daily, week 12	0.00099 ± 0.00057 µg·h/mL
Cc1cc(C)c2c(c1)[C@@H](N(Cc1cc(C(F)(F)F)cc(C(F)(F)F)c1)c1nnn(C)n1)CCCN2C[C@H]1CC[C@H](C(=O)O)CC1	–	human, plasma	oral, 300 mg once daily, steady state, geometric mean	7.57 µg·h/mL
COc1cc2ncnc(Nc3ccc(F)c(Cl)c3)c2cc1OCCCN1CCOCC1	–	human, plasma	oral, 250 mg, together with: vorinostat 400 mg	0.00385 ± 0.003 µg·h/mL
O=C(NCCN1CCCC1)c1cc(-c2ccc(CN3CCOCC3)cc2)nc2ccc(F)cc12	LC-MS/MS	human, whole blood	oral, 50 mg, single dose, geometric mean	0.492 µg·h/mL
CNc1nc(Nc2ccc(-n3cnc(C)n3)c(OC)c2)nc2c1CC[C@H]2c1ccc(F)cc1	–	human	oral, 50 mg once daily, day 28, multiple ascending dose	4.77 µg·h/mL
Cc1[nH]c(/C=C2\C(=O)Nc3ccc(F)cc32)c(C)c1C(=O)N[C@H]1CCN(C(=O)N(C)C)C1	–	human, plasma	oral, 200 mg once daily multiple dosing, together with: everolimus 5 mg	6.71 ± 5.32 µg·h/mL
C=CC(=O)N1CCC([C@@H]2CCNc3c(C(N)=O)c(-c4ccc(Oc5ccccc5)cc4)nn32)CC1	–	human	oral, 160 mg, single dose, mean	1.16 µg·h/mL
CC(C)c1nc(N(C)S(C)(=O)=O)nc(-c2ccc(F)cc2)c1/C=C/[C@@H](O)C[C@@H](O)CC(=O)O	–	humans, plasma	oral, 20 mg, geometric mean, together with: fenebrutinib 200 mg twice daily	0.226 µg·h/mL
Cc1nc2cccc(N)c2c(=O)n1C1CCC(=O)NC1=O (stereo not drawn)	–	healthy adult human, plasma	oral, 3 mg, geometric mean, together with: itraconazole 200 mg once daily	0.679 µg·h/mL
C[C@@H](Oc1cc(-c2cnn(C3CCNCC3)c2)cnc1N)c1c(Cl)ccc(F)c1Cl	–	healthy human, plasma	oral, 250 mg single fasted, geometric mean	2.31 µg·h/mL

Compound	test	system	setting	AUC(0-t)
CN[C@@H]1COc2c(S(=O)(=O)NC(=O)Nc3c4c(cc5c3CCC5)CCC4)cnn2C1	–	human	oral, 600 mg, fasted, mean	172 µg·h/mL
CCCCC1(CCCC)CN(c2ccccc2)c2cc(SC)c(OCC(=O)N[C@@H](C(=O)NCC(=O)O)c3ccccc3)cc2S(=O)(=O)C1	–	human, plasma	oral, 2.5 mg, no breakfast	0.00166 µg·h/mL
CC(C)[C@@H](CS(=O)(=O)C(C)C)N1C(=O)[C@@](C)(CC(=O)O)C[C@H](c2cccc(Cl)c2)[C@H]1c1ccc(Cl)cc1	–	human, plasma	oral, 60 mg, new tablet, fasted, arithmetic mean	3.39 µg·h/mL
CC(=O)c1c(C)c2cnc(Nc3ccc(N4CCNCC4)cn3)nc2n(C2CCCC2)c1=O	–	human	oral, 50 mg/m^2 single dose, day 1	1.33 µg·h/mL
CNC(=O)c1cc(Oc2ccc(NC(=O)Nc3ccc(Cl)c(C(F)(F)F)c3)cc2)ccn1	–	human patients, plasma	oral, 400 mg twice daily, day -1, alone, steady state	90.7 µM·h
C=C(C)[C@@H]1CC[C@]2(NCCN3CCS(=O)(=O)CC3)CC[C@]3(C)[C@H](CC[C@@H]4[C@@]5(C)CC=C(C6=CC[C@@](CF)(C(=O)O)CC6)C(C)(C)[C@@H]5CC[C@]43C)[C@@H]12	–	healthy human volunteers, plasma	oral, 200 mg, tablet, fasted state, geometric mean	11.4 µg·h/mL
CNC(=O)c1ccc(-c2cnc3ncc(Cc4ccc5ncccc5c4)n3n2)cc1F	–	healthy human subjects, plasma	oral, 200 mg, geometric mean, together with: itraconazole 200 mg/day	7.43 µg·h/mL
CC(C)(/C=C(\C#N)C(=O)N1CCC[C@@H](n2nc(-c3ccc(Oc4ccccc4)cc3F)c3c(N)ncnc32)C1)N1CCN(C2COC2)CC1	–	human, plasma	oral, 100 mg single dose, median	0.051 µg·h/mL
Cc1cc(-c2nnc(N)nc2-c2ccc(F)cc2)cc(Cl)n1	–	human patients, plasma	oral, 200 mg capsule, single dose, arithmetic mean	7.17 µg·h/mL
O=C(Nc1c(Cl)cncc1Cl)c1ccc(OC(F)F)c(OCC2CC2)c1	–	human adults, ≥18 years, plasma	topical, 0.3% cream once daily, day 15	0.0727 µg·h/mL
CCCS(=O)(=O)N[C@H]1C[C@@H](N(C)c2ncnc3[nH]ccc23)C1	–	humans, normal hepatic function	oral, 200 mg single	5.55 µg·h/mL
CNC(=O)c1c(C)oc2cc(Oc3ncnc4cc(OC)c(OC)cc34)ccc12	–	human, plasma	oral, 5 mg, fasted, together with: rabeprazole 40 mg	5.28 µg·h/mL
O=C(O)CNC(=O)c1c(O)c2ccccc2n(OCC2CC2)c1=O	LC-MS/MS	human, blood	oral, 150 mg multiple doses	28.8 ± 13.5 µg·h/mL
Cc1ccc(NC(=O)c2ccc(CN3CCN(C)CC3)cc2)cc1Nc1nccc(-c2cncc(-c3oncc3C)c2)n1	–	older healthy human adults, plasma	oral, 325 mg single dose, fed, mean	243 µg·h/mL
COc1c(OCCCN2CCOCC2)ccc2c1N=C(NC(=O)c1cnc(N)nc1)N1CCN=C21	–	human cancer patients, plasma	intravenous, 0.6 mg/kg weekly, cycle 1 day 15, geometric mean, together with: refametinib 30 mg twice daily	0.619 µg·h/mL
CC[C@H](C)[C@@H]1NC(=O)[C@H](CCCNC(=N)N)NC(=O)[C@H](CC(=O)O)NC(=O)[C@H](CC(C)C)NC(=O)[C@H](CCCCN)NC(=O)[C@H](CC(C)C)NC(=O)CNC(=O)[C@H](Cc2ccccc2)NC(=O)[C@@H](NC(=O)CNC(=O)[C@H](CCCCN)NC(=O)[C@H](CO)NC(=O)[C@H](CC(C)C)NC(=O)CNC(=O)[C@H](CCCCN)NC(=O)[C@H](CCCCN)NC(=O)[C@H](CC(N)=O)NC(=O)[C@H](C)NC(=O)CNC(=O)[C@H](CCCCN)NC(=O)[C@H](Cc2ccc(O)cc2)NC(=O)[C@H](CCCCN)NC(=O)[C@H](CCCNC(=N)N)NC(=O)[C@H](C)NC(=O)[C@H](CC(N)=O)NC(=O)[C@@H]2CCCN2C(=O)[C@H](Cc2c[nH]cn2)NC(=O)[C@H](CCC(=O)O)NC(=O)[C@H](CCC(N)=O)NC(=O)CNC(=O)[C@@H]2CCCN2)CSSC[C@@H](C(=O)O)NC(=O)CNC(=O)[C@H](CC(C)C)NC(=O)CNC(=O)[C@H](CO)NC(=O)[C@H](CCSC)NC(=O)[C@H](CO)NC(=O)CNC1=O	ELISA	human, plasma	subcutaneous, 2.5 µg/kg single dose, day 1	2.28e-05 µg·h/mL
NCCCS(=O)(=O)O	–	human, plasma	oral, 100 mg loose-filled capsule, single dose	3.27 ± 1.13 µg·h/mL
C[C@H](N)C(=O)N1C[C@H](CCCB(O)O)[C@](N)(C(=O)O)C1	–	human, plasma	oral, 50 mg, cycle 1 day 1	8.1 ± 3.25 µg·h/mL
COc1cccc(-c2ccc(NC(=O)C3=C(C(=O)O)CCC3)c(F)c2)c1	–	human, male, fasted, plasma	oral, 40 mg, single dose, geometric mean	181 µg·h/mL
CN(Cc1cnc2nc(N)nc(N)c2n1)c1ccc(C(=O)N[C@@H](CCC(=O)O)C(=O)O)cc1	–	human, both sexes, plasma	oral, 15 mg, day 1, alone, arithmetic mean	1.74 µg·h/mL
COc1cc2c(cc1OC)CN(CCc1ccc(NC(=O)c3cc(OC)c(OC)cc3NC(=O)c3cnc4ccccc4c3)cc1)CC2	LC-MS	human, venous plasma	intravenous infusion, 2 mg/kg, 0-4 h	2.61 µg·h/mL and 3.42 µg·h/mL and 2.65 µg·h/mL and 2.71 µg·h/mL
CCOc1ccc(Cc2cc([C@]34OC[C@](CO)(O3)[C@@H](O)[C@H](O)[C@H]4O)ccc2Cl)cc1	–	healthy human, plasma	oral, 15 mg, 20% glucose solution, together with: glimepiride 1 mg	1.28 µg·h/mL

A few entries again:
Compound	test	system	setting	AUC(0-t)
O=S(=O)(c1cccc2cnccc12)N1CCCNCC1	–	human, plasma	oral, 30 mg	0.00029 µg·h/mL
CCCC[C@H](NC(C)=O)C(=O)N[C@H]1CCC(=O)NC[C@@H](C(=O)N[C@@H](Cc2c[nH]c3ccccc23)C(N)=O)NC(=O)[C@H](CCCNC(=N)N)NC(=O)[C@@H](Cc2ccccc2)NC(=O)[C@H](Cc2c[nH]cn2)NC1=O	–	healthy human, both sexes, plasma	subcutaneous, 3.0 mg once daily, day 1, geometric mean	0.152 µg·h/mL
CCNCc1cc(Nc2ccnc3cc(Cl)ccc23)ccc1O	HPLC-EC	human, fasting, both sexes, plasma	oral, 200 mg artesunate + 612 mg amodiaquine, non-fixed loose combination	40.3 ± 19.8 µg·h/mL
COc1cc(Nc2ncc3c(n2)-c2ccc(Cl)cc2C(c2c(F)cccc2OC)=NC3)ccc1C(=O)O	–	human, plasma	oral, 50 mg single, fed	21.7 µM·h
CC(C)NC[C@@H](C(=O)N1CCN(c2ncnc3c2[C@H](C)C[C@H]3O)CC1)c1ccc(Cl)cc1	–	human, hepatic impairment Mild (Child-Pugh), plasma	oral, 100 mg single, geometric mean	0.284 µg·h/mL
